# Measurements collected from several papers.
# A part holds a random share of what one study measured. Positions count from the first letter of the parent shown.

# Set 1 — method: universal PBM; molecule type: double-stranded DNA, one strand shown; medium: in vitro; tested at: not given; reading: higher = stronger binding
# Target: Sal-like protein 4, full length isoform B (SALL4, Homo sapiens, UniProt Q9UJQ4-2, residues 1-616)
# Notes: 8-mer, flanks averaged, mean of replicates
# Residues (chain): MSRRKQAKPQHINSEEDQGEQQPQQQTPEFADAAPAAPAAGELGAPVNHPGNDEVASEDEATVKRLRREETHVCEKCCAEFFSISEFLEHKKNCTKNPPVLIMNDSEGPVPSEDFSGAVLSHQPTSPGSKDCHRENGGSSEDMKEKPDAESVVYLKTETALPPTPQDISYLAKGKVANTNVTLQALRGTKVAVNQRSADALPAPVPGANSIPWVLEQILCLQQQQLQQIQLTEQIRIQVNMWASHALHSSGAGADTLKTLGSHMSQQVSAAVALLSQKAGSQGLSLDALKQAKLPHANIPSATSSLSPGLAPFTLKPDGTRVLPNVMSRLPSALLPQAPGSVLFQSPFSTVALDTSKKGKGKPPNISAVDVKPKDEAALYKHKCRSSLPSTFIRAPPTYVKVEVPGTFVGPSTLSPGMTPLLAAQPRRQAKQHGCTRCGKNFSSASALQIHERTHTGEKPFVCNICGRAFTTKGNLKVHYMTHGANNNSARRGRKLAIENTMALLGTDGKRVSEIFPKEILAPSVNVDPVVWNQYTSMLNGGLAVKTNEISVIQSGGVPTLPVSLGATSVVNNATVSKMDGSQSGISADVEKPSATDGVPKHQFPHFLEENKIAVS
Sequence,E-score
ATATTTAG,0.406
CTCCCACC,-0.223
CCGCGCTC,-0.203
GATATTCA,0.203
ACGTATTC,0.123
AGTCAAAC,-0.0944
ACTATCGG,-0.0232
CAATATTC,0.242
TGGGGACA,-0.0892
CATGCAAC,0.107
CTATCAGA,-0.0667
ATGCGCCG,-0.0968
GTGGTGTA,0.112
GCGGACCA,-0.266
TCCGAGGA,-0.308
AACCGGAC,-0.145
AGAGCAAG,-0.111
TCCTTTCA,0.0604
CCTAGTCG,-0.0291
CGGGTTGC,-0.232

# Set 2 — target: CCNE2, cyclin fold, Cln2 fusion (human); method: yeast growth competition, sequencing; medium: yeast; notes: strong parent motif; reference: not given; reading: higher = stronger binding
# Parent: PLK5 docking peptide (human); IFRKVGQRLLTQC; partner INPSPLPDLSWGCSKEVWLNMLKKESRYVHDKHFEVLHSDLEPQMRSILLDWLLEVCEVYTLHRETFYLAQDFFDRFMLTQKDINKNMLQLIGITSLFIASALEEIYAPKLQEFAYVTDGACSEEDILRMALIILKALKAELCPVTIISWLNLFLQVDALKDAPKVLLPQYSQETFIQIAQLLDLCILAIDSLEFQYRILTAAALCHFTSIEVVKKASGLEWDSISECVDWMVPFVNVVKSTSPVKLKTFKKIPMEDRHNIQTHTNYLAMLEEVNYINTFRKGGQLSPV
Change,normalised enrichment score
R3A,1.15
L9A,0.477
Q12A,0.967
K4A,0.851
F2A,0.992
Q7A,1.17
V5A,0.417

# Set 3 — method: RNA Bind-n-Seq; molecule type: RNA; medium: in vitro; tested at: 200 nM; notes: whole 134-nt RNA, ends assumed; with: 150 mM LiCl; reference: input library; reading: higher = stronger binding; library: 7-deaza-guanosine replaces G
# Target: Ras GTPase-activating protein-binding protein 1, full length (G3BP1, Homo sapiens, UniProt Q13283)
# UniProt Q13283, sequence (whole entry, looked up): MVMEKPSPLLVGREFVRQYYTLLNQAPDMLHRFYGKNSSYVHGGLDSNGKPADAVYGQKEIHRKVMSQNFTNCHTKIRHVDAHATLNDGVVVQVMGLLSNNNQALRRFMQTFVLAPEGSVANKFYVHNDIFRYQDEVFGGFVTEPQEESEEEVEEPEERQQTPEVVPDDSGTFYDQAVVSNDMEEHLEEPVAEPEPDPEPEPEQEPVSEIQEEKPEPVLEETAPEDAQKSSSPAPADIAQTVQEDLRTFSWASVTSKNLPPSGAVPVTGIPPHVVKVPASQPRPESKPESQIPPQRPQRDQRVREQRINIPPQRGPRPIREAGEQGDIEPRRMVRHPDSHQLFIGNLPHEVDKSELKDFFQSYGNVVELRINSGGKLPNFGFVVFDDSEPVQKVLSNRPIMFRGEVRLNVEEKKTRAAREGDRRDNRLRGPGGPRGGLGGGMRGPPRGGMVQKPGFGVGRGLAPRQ
# Constant ends, left off below: GGGAGUUCUACAGUCCGACGAUC … UGGAAUUCUCGGGUGUCAAGG
Sequence,log2 enrichment
CCUGUGCUACACAUCGUAUGUACCGAAUCAAAUUUUUAAAUUUUUUUAAAUUUUUUUAAAAAAGUAUUAUGUUACGCCGUUCGGAUCUGC,-2.38
AGUCCUGUGCUACACAUCGUAUGUACCGAAUCGGGGUUUGGGGUUUUUGGGGUGGGGAAAGUAUUAUGUUACGCCGUUCGGAUCUGCACU,0.34
UGGCCCUGGUGGCAUGCGGGGAUGAAGAGGUGGCCUCAUGGAUCGUGGUGGUCCCGGUGGAAUGUUCAGAGGUGGCCGUGGUGGAGACAG,0.161
CAAGUCCUGUGCUACACAUCGUAUGUACCGAAUCGGUUUGGUUUGGAAAAAAAGGAAAGUAUUAUGUUACGCCGUUCGGAUCUGCACUUC,-1.09
CCUCAAGUCCUGUGCUACACAUCGUAUGUACCGAAUCGGUUUGGAAAGGUGGAAAGUAUUAUGUUACGCCGUUCGGAUCUGCACUUCCAG,0.212
ACCAUGCAGGUGGGCAUCUUUGGGAAGUGGGGCAAGGGGGGGAUAGGGAGGGUGGUAACACUUUGGGAACAGGUGGUCCCAGGUCGUUUC,0.369
UCAAGUCCUGUGCUACACAUCGUAUGUACCGAAUCGGAAAAAAAGGAAAGGAGGAAAGUAUUAUGUUACGCCGUUCGGAUCUGCACUUCC,-0.65
AGUCCUGUGCUACACAUCGUAUGUACCGAAUCGGGUUUUUUUGGGAAAAAGGGAGGGAAAGUAUUAUGUUACGCCGUUCGGAUCUGCACU,-1.6
CCUCAAGUCCUGUGCUACACAUCGUAUGUACCGAAUCGGAGGAGGGGAGGGGAAAGUAUUAUGUUACGCCGUUCGGAUCUGCACUUCCAG,0.552
AGUCCUGUGCUACACAUCGUAUGUACCGAAUCGGGGUGGGGAGGGGUUUUUUUGGGGAAAGUAUUAUGUUACGCCGUUCGGAUCUGCACU,0.637
UCCUCAAGUCCUGUGCUACACAUCGUAUGUACCGAAUCGGAGGAGGGGAGGGAAAGUAUUAUGUUACGCCGUUCGGAUCUGCACUUCCAG,-0.6

# Set 4 — method: protein binding microarray; molecule type: double-stranded DNA, one strand shown; medium: in vitro; tested at: not given; reference: not given; reading: higher = stronger binding
# Target: Histone acetyltransferase KAT6A, both winged helices, GST fusion (KAT6A, Homo sapiens, UniProt Q92794, residues 1-181)
# Notes: 8-mer, flanks averaged, mean of 2 arrays, mostly near background
# Construct (chain): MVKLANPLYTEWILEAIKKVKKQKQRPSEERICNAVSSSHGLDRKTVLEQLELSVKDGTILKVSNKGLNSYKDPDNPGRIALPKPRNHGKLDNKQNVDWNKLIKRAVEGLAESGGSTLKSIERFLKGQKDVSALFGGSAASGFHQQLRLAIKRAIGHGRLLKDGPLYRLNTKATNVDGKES
Sequence,E-score
TTGCCCAA,0.0523
GAATCAGA,-0.15
AAAGCGTG,0.183
ATGCTGTG,-0.1
GGTCCTAC,-0.136
TATGATGA,-0.0899
GCCGAGGC,0.21
GTCATCAA,0.0149
ACAATCCA,-0.13
ATGCTACA,-0.0838
ACCGTAAA,0.229
ACATCCGG,0.163
CCACGGCA,0.25
AATCTACC,0.0463
GTTTACCA,-0.00585
GGATTTCA,-0.0881
ACGCTTCC,0.26
AAAGGATT,-0.158
GACGAGTA,-0.035
GATCCAAA,-0.12
ATCACCAC,-0.0292
GCTATCAC,0.0774
CATTCTCC,-0.145
GCGCCCCC,0.178
CGAGTAAA,0.0739

# Set 5 — method: RNA Bind-n-Seq; molecule type: RNA; medium: in vitro; tested at: 365 nM; reference: no-protein control; reading: higher = stronger binding
# Target: RNA binding protein fox-1 homolog 2, RRM domain, GST-SBP tag (RBFOX2, Homo sapiens, UniProt O43251-10, residues 100-194)
# Notes: natural RNA segment, single round, ends assumed
# Constant ends, left off below: GGGAGUUCUACAGUCCGACGAUC … UGGAAUUCUCGGGUGCCAA
# Target sequence (chain): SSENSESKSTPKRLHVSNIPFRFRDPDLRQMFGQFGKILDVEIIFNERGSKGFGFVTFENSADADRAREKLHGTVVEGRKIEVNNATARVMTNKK
Sequence,RBNS enrichment (R)
AGAACACAUGACUUUUUAAAGAAAAUUACUAAGCAAACUGGAAAAGUGAAGUAUUUUCAUAGUGAUCUGUGCUCCACUUAAUGUUUCCCAGGGACCAUUAGUGUCUUUUU,0.546
UCCAGAAUUUGAGUCCUGUUAAUGUAGUAGAAAAAAAAAAAAGAAAUUUUCUUUUUCUUUUGUGCUGGUCUUGCAAGUUUGUCUACCAGUAAGAGAGCAAAGUUUCCUUC,1.64
UAUGUUAUAUAACAUUCAAAAAGAAUUUUUUUCUUGAUUGAGAAAAGGAUACAAAAUGCAAAAUCCACAAUUUUGAUAACUGAAAAUUGCCAAUUGUUUUGCAGUACUUU,0.554
GGGUAAUCUGAUGUAUAGUUGUUUUGUUGCUGAUGUUUCCAUUGAAAUUUCAGCUCUGAGUUUGUGCACAUGAAUACUUACUUGUGUUUACCAAAGGUCUAAGGCAUUUG,1.38
CUAAUGUGAUGGAUGUGUCUGGUAAUGCGAAACAACUUAUUUCCGUCUACUGCUCAGCACUUUGGUAAGAGCCUGUGGCAGUCUGUAAGAGUGGGGUGAGGAAGAAGCCA,0.84
GUCUUCACAGAAAAUACAUGUUCCUUCCCCGUGGUUCCUGUACUCAUUUUAACGUGUUGUUUAUUCUGUUUCACGACCUACAUACAGUUCUUGUGCAUCAGGAUAUAUCA,0.429
CAGAGAACUGGCCUAAGCUCUAGAUUAGCCAAGAAAGCUGGAAAACAGAGCGCCAGGCUUCACUCUGCAGAGAGAAAGUGCUCUGUCCCUGUAGCGUCUGAUUCCACUUA,0.232
AAGUGGAUGAGUUAUAGAGGAGGCCCUCGAGGCUGACCCAAUACGGUUACUAAGGGAGACUACAGGGAUCUCACGACAAACAUUCUGAUACAAUACUCAACCUCGGUAUA,0.37
UUUGUUUUCCCAGAGGCUGCCAUAUGGUCUUUGAGUACGGGGAUGUCCCAAACUGGCCCACCAAUGAGCAUGGCGGCUCCGGCCAGGAAUGCCAGAGUUAGCCUCCCAGG,0.269
CGCCGUGGACUCUCGUGCAGGACUUGGGACUCGUGCUGAAGCCUUGGGGUCAAGGAACAUUUCAGUGGGUUUUUGCCCCAUCUCCUCCUCCCGUCCCCUGCUCAUGGGAC,0.379
GGCAGCCGCCAGCCAAAAUGAUGCCAUUGCCUGAGCUGACAGCCAAGCCCUUCUGUGGGUCACCUUUCUCCUCACCCAGCCCCUUGCUCUUCCCUUUUGAAAGGCCCGUG,0.44
CAGCUGACUGCUGGUCCGGCUUCUGACCGGCCUUUGUCCUGGCUCCGUAGCAGAACACUGUAAAAGUGCCCGCGUCUUUGCAGUAGUUGCAGAUUUCAGUCGUCGUGUUA,0.349

# Set 6 — method: protein-binding microarray; molecule type: double-stranded DNA, one strand shown; medium: in vitro; tested at: 250 nM; notes: 60-bp whole probe; with: salmon DNA 0.4 mg/ml; reference: random background probes; reading: higher = stronger binding; constant ends, left off below: GCCTAGCAC … GTCTTGATTCGCTTGACGCTGCTG
# Target: Interferon regulatory factor 5, full length, phosphomimetic (IRF5, Homo sapiens, UniProt Q13568-2, residues 1-514, K96S/S451D/S453D/S456D/S462D)
Sequence,log fluorescence
GACGGACTGCTACTCCTGACGTGCTAG,-0.333 z-score
GGCTCTCTGGACTGTGTGTTTGTGCTA,-0.387 z-score
TTAGGTATCGGTTTCGGCTAGTGCTAG,9.81 z-score
GACAATTTCGGGTTTCGAGACGTGCTA,7.49 z-score
TCAGGTTTCGGGACTGGGTTAGTGCTA,5.51 z-score
ACCATTCTCGGGACTCACCTGGTGCTA,0.206 z-score
CAAGTGATGTAGCTGGGAGCGTGCTAG,-0.225 z-score
ACTCTTCTTTTTTTTCTTTAGTGCTAG,1.39 z-score
TCACTTTTGAGAGATGGAACTGTGCTA,0.566 z-score
TCATTTTGCTTTCTTTTACTGTGCTAG,2.88 z-score
TTAGGTATCGACTATCGGTGAGTGCTA,6.67 z-score
TGAGTCTTCCCTTTTAAGTTGTGCTAG,0.308 z-score
CACGGTCTCCTTTTCCTGACGTGCTAG,0.00238 z-score
GACGGTATCGGGAATGGGGACGTGCTA,1.48 z-score
GACGGTTTCCTTTTCCTGACGTGCTAG,1.3 z-score
TTAGGTATCGGGTTTCGCTTAGTGCTA,5.99 z-score
TTAGGTCTCGGACTGAGTTAGTGCTAG,-0.195 z-score
TCATGTTGCTGTTTGAGACTGTGCTAG,0.39 z-score
TTAGGTTTAGGTATCGGTTAGTGCTAG,5.67 z-score
TCATCTGTCCGTGCTCAGACTGTGCTA,0.255 z-score
GACGGTTTCCTTCTCGTGACGTGCTAG,0.906 z-score
AGTATGTTCACTATTTAAGAGTGCTAG,0.501 z-score
GACGGTCTCGGTATCGGGACGTGCTAG,1.04 z-score
TTAGGACTAGGGACTGGGTTAGTGCTA,-0.791 z-score
GACCGTTTCGACACTGGGGACGTGCTA,3.51 z-score
